{"data": "Measurements gathered from unrelated publications", "note": "Every numbered part comes from another study and shows a few of its results, in no order."}
{"data": "Block 1", "target": "Centromere-binding protein 1, full length, N-terminal tag (CBF1, Saccharomyces cerevisiae, UniProt P17106, residues 1-351)", "method": "protein-binding microarray", "form": "double-stranded DNA, one strand shown", "sample": "in vitro", "concentration": "0.8 µM", "setting": "whole 60-bp probe, no competitor", "direction": "higher = stronger binding", "UniProt P17106, sequence (whole entry, looked up)": "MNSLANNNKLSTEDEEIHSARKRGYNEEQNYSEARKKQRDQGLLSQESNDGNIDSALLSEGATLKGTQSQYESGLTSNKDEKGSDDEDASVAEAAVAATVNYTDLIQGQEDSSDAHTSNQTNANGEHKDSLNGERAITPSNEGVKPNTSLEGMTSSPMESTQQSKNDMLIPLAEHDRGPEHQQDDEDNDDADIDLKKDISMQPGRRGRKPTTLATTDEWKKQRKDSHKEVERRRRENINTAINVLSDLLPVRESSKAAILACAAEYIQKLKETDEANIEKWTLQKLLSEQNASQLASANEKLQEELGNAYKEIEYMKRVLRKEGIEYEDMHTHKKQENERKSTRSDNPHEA"}
{"Strand": "CTAATATGTCCTTGCTAGCTGATGTCTCGAAATTTCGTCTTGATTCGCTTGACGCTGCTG", "fluorescence intensity [a.u.]": 523}
{"Strand": "CTAGTCTTCTAGTGTCAGCTGTCTTACCTCACATTCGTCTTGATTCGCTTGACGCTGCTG", "fluorescence intensity [a.u.]": 644}
{"Strand": "GAAATAACTACATCTGATGTCATAGATTTTAAATAGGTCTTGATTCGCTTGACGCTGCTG", "fluorescence intensity [a.u.]": 538}
{"Strand": "GAATTTGCAATAGATCAGATGATATCTCACTCTTAGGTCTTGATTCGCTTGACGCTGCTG", "fluorescence intensity [a.u.]": 765}
{"Strand": "CTATAAGCTATTTGTCACGTTACTATTTCTCTCTTCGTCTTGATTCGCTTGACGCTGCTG", "fluorescence intensity [a.u.]": 2370}
{"Strand": "CTAACGCGAACTAGTCACGATTGATCAAACTTTTTCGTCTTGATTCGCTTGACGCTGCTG", "fluorescence intensity [a.u.]": 629}
{"Strand": "CTACCTAGCAACTCAGAGGTGATGAATTAAAAGTTCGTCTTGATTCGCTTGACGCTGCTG", "fluorescence intensity [a.u.]": 523}
{"Strand": "CTATATTTAACAAAAAACGTGATGGTACACACATTCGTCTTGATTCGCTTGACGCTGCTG", "fluorescence intensity [a.u.]": 1420}
{"Strand": "GAAGCATTCTTTGCCTGCGTGGCTTTCGTCCGCTAGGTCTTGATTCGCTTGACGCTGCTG", "fluorescence intensity [a.u.]": 507}
{"data": "Block 2", "target": "Histone acetyltransferase KAT6A, both winged helices, GST fusion (KAT6A, Homo sapiens, UniProt Q92794, residues 1-181)", "method": "protein binding microarray", "form": "double-stranded DNA, one strand shown", "sample": "in vitro", "concentration": "not given", "setting": "8-mer, flanks averaged, mean of 2 arrays, mostly near background", "baseline": "not given", "direction": "higher = stronger binding", "Residues (chain)": "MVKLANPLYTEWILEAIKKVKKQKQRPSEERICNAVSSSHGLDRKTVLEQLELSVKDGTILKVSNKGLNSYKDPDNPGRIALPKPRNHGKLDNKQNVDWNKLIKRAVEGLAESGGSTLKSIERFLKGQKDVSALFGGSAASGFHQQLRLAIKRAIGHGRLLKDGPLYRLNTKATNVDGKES"}
{"Strand": "AGGCACCT", "E-score": -0.0729}
{"Strand": "TAACGGCA", "E-score": 0.275}
{"Strand": "CAACGTAC", "E-score": -0.0402}
{"Strand": "TCCCTACA", "E-score": -0.117}
{"Strand": "GACCTATA", "E-score": 0.0574}
{"Strand": "GATCACTA", "E-score": 0.0678}
{"Strand": "CCGGAAGG", "E-score": 0.0121}
{"data": "Block 3", "target": "Ras GTPase-activating protein-binding protein 1, C-terminal RGG region (G3BP1, Homo sapiens, UniProt Q13283)", "method": "RNA Bind-n-Seq", "form": "RNA", "sample": "in vitro", "concentration": "1 µM", "setting": "whole 134-nt RNA, ends assumed", "with": "150 mM KCl", "baseline": "input library", "direction": "higher = stronger binding", "UniProt Q13283, sequence (whole entry, looked up)": "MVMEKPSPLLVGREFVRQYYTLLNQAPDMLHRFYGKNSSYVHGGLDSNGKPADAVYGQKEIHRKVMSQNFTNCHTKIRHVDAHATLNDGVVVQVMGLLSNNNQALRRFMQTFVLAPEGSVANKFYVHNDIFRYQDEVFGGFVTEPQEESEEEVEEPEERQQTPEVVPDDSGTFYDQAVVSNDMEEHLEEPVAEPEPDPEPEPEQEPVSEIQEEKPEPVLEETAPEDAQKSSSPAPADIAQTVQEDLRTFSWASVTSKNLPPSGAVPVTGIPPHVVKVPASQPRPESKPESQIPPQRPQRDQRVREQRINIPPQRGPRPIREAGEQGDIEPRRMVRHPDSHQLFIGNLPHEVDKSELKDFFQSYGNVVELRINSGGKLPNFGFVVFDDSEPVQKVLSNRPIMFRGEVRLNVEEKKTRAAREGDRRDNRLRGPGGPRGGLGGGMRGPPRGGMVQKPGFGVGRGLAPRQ"}
{"Strand": "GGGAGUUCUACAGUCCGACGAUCAAGUCCUGUGCUACACAUCGUAUGUACCGAAUCAAACCCAAAUUUUUAAAUUUAAAAAAGUAUUAUGUUACGCCGUUCGGAUCUGCACUUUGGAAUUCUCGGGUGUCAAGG", "log2 enrichment": -1.02}
{"Strand": "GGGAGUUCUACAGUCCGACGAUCUUUCCCCUGGAGGGCGCCUCCAUCCUUGGAGGCCUAGUGCCGUCGGAGAGAGAGCGGGAGCCGCGGACAGAGACGCGUGCGCAAUUCGGAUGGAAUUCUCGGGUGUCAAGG", "log2 enrichment": -2.95}
{"Strand": "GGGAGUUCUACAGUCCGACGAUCCAAGUCCUGUGCUACACAUCGUAUGUACCGAAUCGGGCCCGGCCCGGGGCCCGGGAAAGUAUUAUGUUACGCCGUUCGGAUCUGCACUUCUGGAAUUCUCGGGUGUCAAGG", "log2 enrichment": -1.67}
{"Strand": "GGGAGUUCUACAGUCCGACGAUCGUCCUGUGCUACACAUCGUAUGUACCGAAUCGGUUUUUGGAAAAAAAGGAAAAAAAGGAAAGUAUUAUGUUACGCCGUUCGGAUCUGCACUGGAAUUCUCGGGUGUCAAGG", "log2 enrichment": -1.73}
{"Strand": "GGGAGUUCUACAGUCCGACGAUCGUCCUGUGCUACACAUCGUAUGUACCGAAUCAAACCCCCCCAAAUUUAAACCCCCAAAAAAGUAUUAUGUUACGCCGUUCGGAUCUGCACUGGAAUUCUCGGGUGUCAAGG", "log2 enrichment": -0.327}
{"Strand": "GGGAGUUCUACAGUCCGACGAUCUCAAGUCCUGUGCUACACAUCGUAUGUACCGAAUCGGGGAAGGGGAAGGAAGGGGAAAGUAUUAUGUUACGCCGUUCGGAUCUGCACUUCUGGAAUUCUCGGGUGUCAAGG", "log2 enrichment": 0.573}
{"Strand": "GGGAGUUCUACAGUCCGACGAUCGCAGGAAGUAAAAACAAAUGGAAAUGCUUCGGAUAGUGGCAGCGGUGGGGGUUGCUAAGGAAAGGGUGGGAUGGGAGUGGGUAAAGAGUUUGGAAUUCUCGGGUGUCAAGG", "log2 enrichment": 0.982}
{"Strand": "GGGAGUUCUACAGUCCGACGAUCUUAAGACAGUCAUUUUAAAAUGGUGGCUGAAUUUCCCAACCCACCCCCAAACUAAACACUAAGUUUAAUUUUCAGCUCCUCUGUUGGACAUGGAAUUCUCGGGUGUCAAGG", "log2 enrichment": -0.262}
{"Strand": "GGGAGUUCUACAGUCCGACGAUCUGGGAGGUGGAUUUUGUUUAUUUUUUUAGCUCAUUUCCAGGGGUGGGAAUUUUUUUUCAAUAUGUGUCAUGAAUAAAGUUGUUUUUGAAAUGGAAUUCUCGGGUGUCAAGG", "log2 enrichment": 3.33}
{"data": "Mixed results"}
{"Substance": "PhoQ, residues 284 288 289 292 302 303 GTAMQF", "target": "PhoP, residues 12 14 15 18 19 LWHVM (Escherichia coli, UniProt P23836)", "assay": "Sort-seq, measured: YFP reporter", "system": "E. coli", "conditions": "PhoQ-PhoP variant library, with: 10 µM Mg2+", "how to read": "baseline: high Mg2+ state, higher = stronger signaling", "measurement": "fold induction", "result": 16.8}
{"note": "A few entries again (block 3):"}
{"Strand": "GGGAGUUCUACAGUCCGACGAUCAAGUCCUGUGCUACACAUCGUAUGUACCGAAUCAAACCCAAAUUUUUAAAUUUAAAAAAGUAUUAUGUUACGCCGUUCGGAUCUGCACUUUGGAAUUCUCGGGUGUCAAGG", "log2 enrichment": -1.02}
{"Strand": "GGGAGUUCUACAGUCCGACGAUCUUUCCCCUGGAGGGCGCCUCCAUCCUUGGAGGCCUAGUGCCGUCGGAGAGAGAGCGGGAGCCGCGGACAGAGACGCGUGCGCAAUUCGGAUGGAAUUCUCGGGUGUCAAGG", "log2 enrichment": -2.95}
{"Strand": "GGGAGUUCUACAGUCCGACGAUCCAAGUCCUGUGCUACACAUCGUAUGUACCGAAUCGGGCCCGGCCCGGGGCCCGGGAAAGUAUUAUGUUACGCCGUUCGGAUCUGCACUUCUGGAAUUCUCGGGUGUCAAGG", "log2 enrichment": -1.67}
{"Strand": "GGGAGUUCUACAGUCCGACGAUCGUCCUGUGCUACACAUCGUAUGUACCGAAUCGGUUUUUGGAAAAAAAGGAAAAAAAGGAAAGUAUUAUGUUACGCCGUUCGGAUCUGCACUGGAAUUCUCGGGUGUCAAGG", "log2 enrichment": -1.73}
